Measurements pooled from the literature.
A part holds a random share of what one study measured.

Series 1 — technique: universal PBM; form: double-stranded DNA, one strand shown; sample: in vitro; tested at: 600 nM; reading: higher = stronger binding; measurement: E-score
Target: Sal-like protein 4, full length isoform A (SALL4, Homo sapiens, UniProt Q9UJQ4, residues 1-1053)
UniProt Q9UJQ4, sequence (whole entry, looked up): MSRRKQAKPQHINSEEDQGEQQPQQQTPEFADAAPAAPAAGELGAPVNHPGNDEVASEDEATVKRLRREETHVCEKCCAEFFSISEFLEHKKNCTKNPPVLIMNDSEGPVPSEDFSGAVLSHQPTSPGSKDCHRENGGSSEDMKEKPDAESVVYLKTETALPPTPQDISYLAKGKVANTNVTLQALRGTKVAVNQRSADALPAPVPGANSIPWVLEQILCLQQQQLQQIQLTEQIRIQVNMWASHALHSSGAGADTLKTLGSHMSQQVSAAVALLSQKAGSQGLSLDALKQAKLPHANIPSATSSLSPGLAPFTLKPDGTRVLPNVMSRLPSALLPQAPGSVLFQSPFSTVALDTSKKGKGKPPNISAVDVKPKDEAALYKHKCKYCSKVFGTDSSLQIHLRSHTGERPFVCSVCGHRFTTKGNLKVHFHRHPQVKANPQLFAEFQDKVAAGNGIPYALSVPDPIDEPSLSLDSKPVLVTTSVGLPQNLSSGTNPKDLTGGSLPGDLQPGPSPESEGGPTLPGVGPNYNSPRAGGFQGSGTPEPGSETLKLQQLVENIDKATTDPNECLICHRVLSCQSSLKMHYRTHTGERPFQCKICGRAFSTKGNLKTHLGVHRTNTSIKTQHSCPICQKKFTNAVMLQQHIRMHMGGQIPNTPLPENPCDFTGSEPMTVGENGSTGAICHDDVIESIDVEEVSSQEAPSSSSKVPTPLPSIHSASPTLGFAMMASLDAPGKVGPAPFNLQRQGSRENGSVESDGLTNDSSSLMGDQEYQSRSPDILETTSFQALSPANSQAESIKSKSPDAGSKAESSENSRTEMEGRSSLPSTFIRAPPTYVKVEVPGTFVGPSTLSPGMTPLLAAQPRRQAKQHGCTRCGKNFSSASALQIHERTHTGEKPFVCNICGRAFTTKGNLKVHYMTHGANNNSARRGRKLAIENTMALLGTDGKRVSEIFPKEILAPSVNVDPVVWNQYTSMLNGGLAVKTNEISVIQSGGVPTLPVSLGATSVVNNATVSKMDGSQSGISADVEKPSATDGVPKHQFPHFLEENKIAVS
Notes: 8-mer, flanks averaged, mean of replicates
GCATGCGA: 0.0847
ATTGCCTA: 0.119
CGGCAAAA: -0.0153
TAGGGGCA: -0.113
ATTGAGTC: 0.00383
ATCATCAC: 0.16
AAACCCCC: -0.259
AGAATGCT: 0.0635
GGCAGCGA: -0.288
ATAAATTC: 0.315
ATCGCCTC: 0.0495
CCTTTCAA: 0.105
CACATGCC: -0.11
GCGAACAA: 0.0699
CGCGGGGA: -0.355
CATCTGCG: -0.0515
AATTTGTC: 0.124
TGCTGTAA: 0.238
GACAGACA: 0.00104
CTCCTCAA: -0.116

Series 2 — technique: protein-binding microarray; form: double-stranded DNA, one strand shown; sample: in vitro; tested at: 0.8 µM; notes: whole 60-bp probe, no competitor; reading: higher = stronger binding; measurement: fluorescence intensity; shared flanks, not repeated: … GTCTTGATTCGCTTGACGCTGCTG
Target: Centromere-binding protein 1, full length, N-terminal tag (CBF1, Saccharomyces cerevisiae, UniProt P17106, residues 1-351)
UniProt P17106, sequence (whole entry, looked up): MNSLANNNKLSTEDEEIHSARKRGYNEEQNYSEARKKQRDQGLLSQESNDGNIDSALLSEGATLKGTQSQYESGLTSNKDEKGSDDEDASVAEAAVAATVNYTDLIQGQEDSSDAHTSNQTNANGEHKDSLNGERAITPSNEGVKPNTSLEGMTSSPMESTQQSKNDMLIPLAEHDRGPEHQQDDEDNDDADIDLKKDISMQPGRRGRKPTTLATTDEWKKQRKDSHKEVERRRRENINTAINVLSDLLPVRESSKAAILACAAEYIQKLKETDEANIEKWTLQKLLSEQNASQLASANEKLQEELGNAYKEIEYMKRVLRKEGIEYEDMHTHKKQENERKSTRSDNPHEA
GAAGCCCCGTGATAAAACCTCACGTATGACACATAG: 1090 a.u.
CTACAGGATCTTGGTCACATATATATATATATATTC: 3450 a.u.
GAATGTAGGAAAATAAACGTGTTGCTCTGTCATTAG: 538 a.u.
CTATGTTTTCTTTGCCACGTTTTTTCGTGAGCTTTC: 699 a.u.
GAAGATAGTTAGCCCCACGATAAAACTTAGCAGTAG: 546 a.u.
GAAAATAATAGTAATGGCGTGAGCCTATGTGTATAG: 527 a.u.
CTACAATAAGAGAACATCGTGAAACAACATAAATTC: 565 a.u.
GAAAGCTTTATGAGTACCGTCACGTTTCCTGTTTAG: 2140 a.u.
GAAAATGCAATTAGTCAGGTGGAATCTAATATCTAG: 928 a.u.
GAATGCTGCCGCTTCAGCGTGAATGACGCAGGTTAG: 513 a.u.
GAACAATTCTTTGACATCAGCAGCACGCTGCTATAG: 554 a.u.
GAACTTTTTACACCACATGTGATAGTATACTACTAG: 1790 a.u.
GAAGCATGTTCTCAGCACGTTTTGAAGTGGCTATAG: 639 a.u.
CTATAGTATCCACTTCGTGTGACATTACTATAATTC: 558 a.u.
CTACCAATTCAGACTCACGAGAAAAAAAACTGTTTC: 652 a.u.
GAAGATAGAGATATTCACCTGGTGATTCGGTAGTAG: 578 a.u.
CTAACCCTAGTTCATCAGGTTGAAGAAGTATTATTC: 530 a.u.
CTATTAATAGTGATACATGTGCTCAATTACGGTTTC: 1320 a.u.
TGTACGAAGCTATCTAGCGTGGTTATAGTAGTTAGG: 553 a.u.

Series 3 — technique: RNA Bind-n-Seq; form: RNA; sample: in vitro; tested at: 200 nM; notes: whole 134-nt RNA, ends assumed; together with: 150 mM KCl; baseline: input library; reading: higher = stronger binding; measurement: log2 enrichment
Target: Fragile X messenger ribonucleoprotein 1, C-terminal low-complexity region (Fmr1, Mus musculus, UniProt P35922)
Shared flanks, not repeated: GGGAGUUCUACAGUCCGACGAUC … UGGAAUUCUCGGGUGUCAAGG
CACAGACAACACGCACCCACUCAGACACAGAGGGAAGGGGUUGGGAUGGGGACAGGGUGCACAGCAGGGCGGGGUAGGACCCCAGCCCCU: 1.33
CUCCAGAAAGCAGUGGGGCCUGAGAUCACCAAGACAGACCUGGUCCCUGCCUUCCAGAACCUGAUGAAAGACUGUGAGGCCGAGGUGAGG: -0.178
AAGUCCUGUGCUACACAUCGUAUGUACCGAAUCGGGGAAAAGGAAAAGGAAAAGGGAAAGUAUUAUGUUACGCCGUUCGGAUCUGCACUU: -0.378
UAACUUUAGAGGAGGAUCUGAUGGAUAUGGCAGUGGACGUGGAUUUGGGGAUGGCUAAAAUGGGUAUGGAGGAGGACCUGGAGGUGGCAA: 0.121
CAAGUCCUGUGCUACACAUCGUAUGUACCGAAUCGGGAAAGGGAAAGGGUUUGGGAAAGUAUUAUGUUACGCCGUUCGGAUCUGCACUUC: 0.631
CCUCAAGUCCUGUGCUACACAUCGUAUGUACCGAAUCGGCGGGGCGGCGGGGAAAGUAUUAUGUUACGCCGUUCGGAUCUGCACUUCCAG: 0.379
UGGGAGGUGGAUUUUGUUUAUUUUUUUAGAUCAUUUCCAGGGGUGGGAAUUUUUUUUUAAUAUGUGUCAUGAAUAAAGUUGUUUUUGAAA: -0.0388
GUGCUACACAUCGUAUGUACCGAAUCGGGGUUUUUUUGGGGUUUUUUUGGGGAAAAAAAGGGGAAAGUAUUAUGUUACGCCGUUCGGAUC: 0.422
UCCUGUGCUACACAUCGUAUGUACCGAAUCGGGGUUUUUGGGGAAAAAAAGGGGAGGGGAAAGUAUUAUGUUACGCCGUUCGGAUCUGCA: 0.603

Series 4 — technique: protein binding microarray; form: double-stranded DNA, one strand shown; sample: in vitro; tested at: not given; baseline: not given; reading: higher = stronger binding; measurement: E-score
Target: Histone acetyltransferase KAT6A, winged helix 2, GST fusion (KAT6A, Homo sapiens, UniProt Q92794, residues 85-181)
Notes: 8-mer, flanks averaged, mean of 2 arrays, mostly near background
Target sequence (chain): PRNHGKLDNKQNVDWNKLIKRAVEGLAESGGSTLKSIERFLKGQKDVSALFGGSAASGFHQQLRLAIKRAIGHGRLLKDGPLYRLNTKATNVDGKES
ATGCCTCG: 0.125
ACAGTGCT: 0.18
CTAGAGCA: 0.0367
GGTTGTAA: -0.0921
CGCTGCTC: -0.0729
ATAATAAA: 0.254
CCTACAGG: -0.0851
CGATCCAG: 0.0195
GACGCCAC: -0.0362
AGCCACTC: -0.1
GTGCCGAA: 0.0518
ATATCTTC: -0.0158
AAACTATT: -0.0691
ACACATTA: -0.241
ACTACATG: -0.127
TGTGAGAA: -0.116
ATTCTAAA: 0.195
AGAAGACT: -0.265
AATCGTTC: -0.0373

For quick reference, copied from above (series 3):
AAGUCCUGUGCUACACAUCGUAUGUACCGAAUCGGGGAAAAGGAAAAGGAAAAGGGAAAGUAUUAUGUUACGCCGUUCGGAUCUGCACUU: -0.378
UAACUUUAGAGGAGGAUCUGAUGGAUAUGGCAGUGGACGUGGAUUUGGGGAUGGCUAAAAUGGGUAUGGAGGAGGACCUGGAGGUGGCAA: 0.121
CAAGUCCUGUGCUACACAUCGUAUGUACCGAAUCGGGAAAGGGAAAGGGUUUGGGAAAGUAUUAUGUUACGCCGUUCGGAUCUGCACUUC: 0.631
CCUCAAGUCCUGUGCUACACAUCGUAUGUACCGAAUCGGCGGGGCGGCGGGGAAAGUAUUAUGUUACGCCGUUCGGAUCUGCACUUCCAG: 0.379
UGGGAGGUGGAUUUUGUUUAUUUUUUUAGAUCAUUUCCAGGGGUGGGAAUUUUUUUUUAAUAUGUGUCAUGAAUAAAGUUGUUUUUGAAA: -0.0388
GUGCUACACAUCGUAUGUACCGAAUCGGGGUUUUUUUGGGGUUUUUUUGGGGAAAAAAAGGGGAAAGUAUUAUGUUACGCCGUUCGGAUC: 0.422
